Earlier results that unrelated publications cite.
Numbers after ± are the reported error. No end group written: not given here.
CD274: Programmed cell death 1 ligand 1 (CD274, Homo sapiens, UniProt Q9NZQ7)
B1: side-chain stapled; chain WWTNDFCACA (also: sidechain bridge or staple (positions not given here))
Sequence of UniProt Q00987 (whole entry, looked up): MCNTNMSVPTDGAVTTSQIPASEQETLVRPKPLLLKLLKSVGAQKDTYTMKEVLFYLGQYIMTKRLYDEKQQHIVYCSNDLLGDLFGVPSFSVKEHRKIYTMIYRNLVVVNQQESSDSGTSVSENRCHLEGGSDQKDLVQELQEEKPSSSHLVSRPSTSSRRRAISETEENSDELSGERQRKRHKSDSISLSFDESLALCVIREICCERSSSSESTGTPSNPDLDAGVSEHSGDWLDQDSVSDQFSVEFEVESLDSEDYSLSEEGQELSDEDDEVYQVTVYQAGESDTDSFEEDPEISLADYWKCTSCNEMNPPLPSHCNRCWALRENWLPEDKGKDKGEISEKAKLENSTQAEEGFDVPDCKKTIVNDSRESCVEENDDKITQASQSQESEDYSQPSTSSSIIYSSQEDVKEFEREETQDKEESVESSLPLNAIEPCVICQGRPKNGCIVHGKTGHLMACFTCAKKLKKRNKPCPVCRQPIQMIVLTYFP

FCDGFYA / CYMDV (disulfide)  Kd (p185HER2/neu (HER2); binding; peptide): 300 nM
CCL5  Kd (US28 wild type; binding, radioligand competition): 1.6 nM
KRRWKKNFIAVSAANRFKKISSS  Kd (calmodulin EF1/EF2 domain; binding; peptide; pH 7.4): 80 ± 6 nM
B1  Kd (streptavidin; binding, HABA competition): 164 nM
NTANRRTTPV  Kd (CHAPSYN-110 PDZ domains 2/3; binding, fluorescence polarization; peptide): 20000 nM
SETSKSF  Kd (CD274; peptide): 82.5 nM
GVPMGSVIKKRRKRMAKKKHRKLLRKTRHQRRNKK  MIC (Pseudomonas aeruginosa; peptide, ATCC 15692): 11 µM
CVRARTR  Kd (CD274; peptide): 281 nM
TNSKQGETTV  Kd (CHAPSYN-110 PDZ domains 2/3; binding, fluorescence polarization; peptide): 8040 nM
MTPSTPPRSRG  Kd (Cdc4; binding; peptide): 4000 nM
RRISSLESEV  Kd (CHAPSYN-110 PDZ domain 3; binding, fluorescence polarization; peptide): 8430 nM
α-synuclein  Kd (Hsp70; fibrils): ~10000 nM
Ac-LTFXEYWAQLXS-NH2 (N-acetyl, C-amide)  Kd (MDM2 (Homo sapiens, UniProt Q00987); binding, fluorescence polarization; peptide): 6.5 ± 0.6 nM
pegcetacoplan  Cmax (human; 30 mg/day for 28 days (0.43 mg/kg), arithmetic mean): 77 µg/mL
teicoplanin  half-life (human patients): 48.1 h
RGTCYNRVGLIIRNFSKLKGKKV  MIC (Escherichia coli; peptide, DH5α): 13 µM
ZGPWLEEEEEAYGWMDFG  Kd (ferric ion; binding, fluorescence spectroscopy; peptide, aqueous solution; pH 4.0, two ferric ions bound): 620 ± 190 nM
PCNA-associated factor p15  Kd (PCNA; binding): 1100 nM
HTHSYIETHV  Kd (CHAPSYN-110 PDZ domains 2/3; binding, fluorescence polarization; peptide): 4120 nM

Repeated from above:
α-synuclein  Kd (Hsp70; fibrils): ~10000 nM
